Results from different studies.
Numbered parts are unrelated; each lists some results of a single study.

Series 1
Target: RING finger protein unkempt homolog, zinc fingers 1-6, GST-SBP tag (UNK, Homo sapiens, UniProt Q9C0B0, residues 30-357)
Chain of UniProt Q9C0B0 (30-357, looked up): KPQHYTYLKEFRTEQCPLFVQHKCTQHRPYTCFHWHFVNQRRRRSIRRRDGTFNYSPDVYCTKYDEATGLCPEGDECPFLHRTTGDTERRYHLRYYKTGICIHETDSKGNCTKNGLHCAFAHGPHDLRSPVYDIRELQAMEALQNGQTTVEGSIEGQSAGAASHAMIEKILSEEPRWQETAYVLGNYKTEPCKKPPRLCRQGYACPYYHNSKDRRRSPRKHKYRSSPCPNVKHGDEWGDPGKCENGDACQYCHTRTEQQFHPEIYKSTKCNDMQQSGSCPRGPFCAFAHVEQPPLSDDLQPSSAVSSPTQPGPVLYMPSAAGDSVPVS
Technique: RNA Bind-n-Seq
Molecule type: RNA
Matrix: in vitro
Tested at: not given
Setting: RNA with constant flanks, human and mouse sites, ends assumed
Baseline: input RNA pool
Direction: higher = stronger binding
Constant ends, left off below: GGGAGUUCUACAGUCCGACGAUC … CAACAGAGGAUUGAGCAUCA
Strand	bound/input enrichment [ratio]
GGACAGUCUCAGCCCCCCCUCCAACAGAAUCAGACUUCAUCGCCUGAUUCGUCCAAUGAAAAUUCCCCUGCAACUCCUCCUGAUGAGCAAGGUCAAGGUGAUGCUCCUCCACAGAUUGAA	0.287
CUGACUAAUGCUUUUGGAAGUUUUGAUCUUCUUGACAACACAGACAUCCAUCUGCACUUCCCAGCUGGAGCUGUCACAAAAGAUGGACCAUCUGCUGGUGUUACCAUAGUAACUUGUCUC	0.115
AAUAGAAGAUCUUCGACAGUGCCUGAACAGGUACAAGAAAAUGCAAGACACGGUGGUACUGGCCCAAGGUAAAAAAGGCAAAGAUGGAGAAUAUGAAGAGCUGCUCAAUUCCAGUUCCAU	0.404
GAUCCUCCACGAUUACGUGAAUAAAAUGAUGGAACCAAAAAUCACUGUCACUUUACAACUUAGGUUUUACUCUUUUCUUUCUACAGACCAUAUUUUUAAAGAAAUGUUUAUACAAUAAUU	3.9
UACAAGUAUUUUAAUUUAAGUUCAGUGAACUUUUUUGUAGCUGGGUUAAAUCUUUUUAUUUUUAGUAUGGCCUUAUGGCAAAGAACACUGUAUUAUUUUAAUAAUCACACGAUUGUGACG	2.14
CACGCAGCAGUUGUGGUCAAUAUUGUGGUAGUCGCUAAUUGUACUGGUUUAAGUGUGCAUUAGUAGUGUCUCCCCAGCUAGAUUGUAAGCUCCUGGAGACAGGGACCACCUCCACCAAAA	0.344
AAAGAAUGGAUAGAAUGUGCACAUGGAAUCGGUUAUACUCGGGCAGAGAAAGAGUGCAAGAUAGAAUAUGAUGAUUUCGUAGAGUGUUUGCUUCGGCAGAAAACGAUGAGACGUGCAGGU	1.54
GUGACAAUUCCAGAGAGCGCACAUAUAUUCACCAGCUUUUAUGCUAAAACAAAAUCGCUAUUAGUUAAUCCAGCACUCUUUUUAAACCCUGAAGACUAUAACCAUCUAAUGGGUUAUGAC	0.486
CUGGUUCCCGCCGGCGAGGAUUGUUAAAAUGAGUCUUCGGAAGCAAACCCCUAGUGACUUCUUAAAGCAAAUCAUCGGACGACCAGUUGUGGUAAAAUUAAAUUCUGGAGUGGAUUAUCG	0.684
GGAGAGGUGUAUGCGGAAUGCCUCAGUGACAGCAGCAUAUUUGUACAGAGUAGGAACUGCAACUUUCAUCAUGGCUUUCAUCCCACCACUGUCUGUAAGAUUCCCAGCAGCUGCAGCCUC	0.201
AAGCAGUUUGAAAGCAGAUAAAAAGUUAGAAUUUGUUCCCACAAACCUGCACAUACAACGGAUGCGAGUUCAAGAUGAUGGAGGCUCAGAUCAGAACUACGAUGUCGUCACUAUUGGAGC	0.18

Series 2
Target: Histone acetyltransferase KAT6A, winged helix 2, GST fusion (KAT6A, Homo sapiens, UniProt Q92794, residues 85-181)
Technique: protein binding microarray
Molecule type: double-stranded DNA, one strand shown
Matrix: in vitro
Tested at: not given
Setting: 8-mer, flanks averaged, mean of 2 arrays, mostly near background
Baseline: not given
Direction: higher = stronger binding
Construct (chain): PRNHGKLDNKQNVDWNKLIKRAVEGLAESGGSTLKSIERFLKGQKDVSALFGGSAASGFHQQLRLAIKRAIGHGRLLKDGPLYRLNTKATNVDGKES
Strand	E-score
GCTTGACC	0.0417
CATGGTCA	-0.0112
TTAAAAAA	0.174
AATCAAAC	0.0489
AGGCAACC	0.0583
CATAGACG	-0.109
CGGGTCCC	0.00539
GCGTCAAA	0.102
CGAACTTC	-0.00834
AGGAGCAG	-0.0573
ACTTCCAA	-0.188
CTGACGAA	0.0854
CTTTACCA	-0.213
ATAATCTC	0.0137
AATCGCAA	0.127
CTTAGTAA	0.0877
GCTCAGCC	0.0274
GGAACAAC	0.0452
ACAGGATG	0.0122
ACTTTGGC	0.0262
CCAAGTGA	-0.188
TAAGCCCA	-0.0476
GGCACCAA	0.0665
ATACTCGC	-0.0428
AAGCATTC	0.0193

Series 3
Target: RNA binding protein fox-1 homolog 2, RRM domain, GST-SBP tag (RBFOX2, Homo sapiens, UniProt O43251-10, residues 100-194)
Technique: RNA Bind-n-Seq
Molecule type: RNA
Matrix: in vitro
Tested at: 365 nM
Setting: natural RNA segment, single round, ends assumed
Baseline: no-protein control
Direction: higher = stronger binding
Constant ends, left off below: GGGAGUUCUACAGUCCGACGAUC … UGGAAUUCUCGGGUGCCAA
Target sequence (chain): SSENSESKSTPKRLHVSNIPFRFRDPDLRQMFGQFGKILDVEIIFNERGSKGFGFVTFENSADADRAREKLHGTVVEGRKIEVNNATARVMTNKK
Strand	RBNS enrichment (R)
GAUUCUGAUGUCAGUAUUGUGUCACCUGAGCGGGAUGAUUACCUGAGUACCAUAGGAACUUUGUACCAGUUGGAAUUUAAGUGGACUGUUUGCUGCUUUUGUUCGCAUUG	0.456
CUCACUGCAACUUCCACCUCCUGGGUUCCAGCAGUUCUCCUGCCUCAGCCUCCCAAGUAGCUGAGAUUACAGGCGCCUGCCACCCCACCUGGCUGAUUUUUGUAAUUUUA	0.247
CAUUUGUAAAUGCAAGAUGCAUUGUAAAAUAAAGUUAAGCUUGUUUUUUUUUAAAAAAAACAAAGCAACAAAUUGACUAGAUAUAGGAUAAUUGAAACAUGUUAAAACAU	0.428
AGUACAUCAAAGGAAUGGAUGGUGGACCCUACUAUUCAUGUUUUGAGACAUAAAUGUUCACUUUAAAGCAAUUGCAUAAUAGAUAAAAACCUGAACUUUCAUUGGAUUUU	0.703
ACCACUUUCAUACUCACGUCCUCAUCCUUGGAUACCCAGGGGAGGGCGAACCGUUUUCGCUCGUGUGUCUGUACGCAGCAUGUUGGGAUCGGGAGUUUCGGCACAGACUA	2.56
GACCUCUGAGAAGUUGGAGAAGUCAGGAAAUUGUACUCUCCACACCGUCCUGGUUUAGUGGAUGGGGAGGAUGGGGUGACGGCUUACCAGCUGUAUUAUGUACUGUACUG	0.467
GCCUUACUUCCUGGAGACCCACCCUGGGGUACCCCACUGCAGGGGGGUACCCCCUUUGCACUUUGACCCUCCUGAUGACGUGGGGCCCAGCACAGGGACCAAGAAGGCUG	2.13
GAGAGCAGGUGUACACCCAACCAAAGUGAUUGUGCCCUUGGUUGGGGGGCGCGGGCAUAUAACCUGUCAGAAGCAAACAGGAGCGGCAACUUCUAACUUUGCUCCAAGCC	0.72
AUGCUUCUGUAUUUCACUCUUUCUCCCUAUUAGGGAGUUAUGCAAAAUUUGUCCCCGAUUUUACCUUUGUCUUUCUGUGUACUUUUCAAAGAGUCCUAAGGAGUUAAAUC	0.239
GGUCACCUAUGAGCUGAAUCAGCCUCUCCUGAGUCCCAGGCCCCUGCAGUCCCCUGUUCUCUGGCCUGCAGUCUCUUGCCCGCUGGUUCCACUUUAUAGCCACCUUUUCC	0.351
UCUUUGAUUUCAUAGUGAGUUUUCUAAAAGACCAGCCGACUAGCUUUUGCAGACUUUGAACAGAACUCUGGUUCCUGUGUUGCCUCUAAUGAAGUAUUCUGUUCCUAGUU	0.579
CCCCAGAUUCCCUGAAAAUCCUGAGAUCAAUCACAUUUAACAUCAGAAGAACCCUUAGUGUCCACCUGGCCCUAUGUUUCCCAGAAUUCAAGCGGAAAACAUCUGAGAAU	0.267

Series 4
Target: Interferon regulatory factor 3, full length, phosphomimetic (IRF3, Homo sapiens, UniProt Q14653, residues 1-427, S386D/S396D/S398D/S402D/T404D/S405D)
Technique: protein-binding microarray
Molecule type: double-stranded DNA, one strand shown
Matrix: in vitro
Tested at: 2540 nM top
Setting: 60-bp whole probe
Together with: salmon DNA 0.4 mg/ml
Baseline: random background probes
Direction: higher = stronger binding
Constant ends, left off below: GCCTAGCAC … GTCTTGATTCGCTTGACGCTGCTG
Residues (chain): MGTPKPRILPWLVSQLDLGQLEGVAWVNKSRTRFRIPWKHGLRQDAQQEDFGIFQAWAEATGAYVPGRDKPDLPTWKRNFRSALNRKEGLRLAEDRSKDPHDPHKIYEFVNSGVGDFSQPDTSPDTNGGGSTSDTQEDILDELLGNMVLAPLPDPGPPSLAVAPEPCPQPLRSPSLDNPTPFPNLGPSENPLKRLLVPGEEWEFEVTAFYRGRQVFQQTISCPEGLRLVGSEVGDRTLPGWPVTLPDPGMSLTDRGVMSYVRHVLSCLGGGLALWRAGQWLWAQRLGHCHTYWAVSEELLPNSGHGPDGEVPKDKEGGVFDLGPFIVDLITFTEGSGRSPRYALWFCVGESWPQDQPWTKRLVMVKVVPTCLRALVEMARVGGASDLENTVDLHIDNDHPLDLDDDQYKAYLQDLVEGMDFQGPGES
Strand	fitted relative affinity
TAACTTTTTTTTTTCCCTGAGTGCTAG	1.18 z-score
TCACATTCCAATTCTTTTACTGTGCTA	3.48 z-score
GTCGAACTGAGTCTCGAGACGTGCTAG	0.168 z-score
GACGGTTTCGGTCTCGAGACGTGCTAG	8.14 z-score
TTAGATCTCAGACTGGATGAGTGCTAG	0.0271 z-score
GGGCATTTGGTTAGCGTATAGTGCTAG	-0.788 z-score
TTAGGACTAGACACTGGGTTAGTGCTA	-0.639 z-score
TCACATCTCCAGTAGCCTACTGTGCTA	1.18 z-score
GACGCTATCAGTCTCGAGACGTGCTAG	1.05 z-score
TTAGGTTGCGGGTTTCGGTTAGTGCTA	4.2 z-score
TCAGTTTCTCCTTTCCAACTGTGCTAG	4.46 z-score
GACGGACTAGGTATCGGGACGTGCTAG	0.385 z-score
TCAGTTTTGCTAAGTCAAACTGTGCTA	1.25 z-score
TCAATTCTCTACTTGTGACTGTGCTAG	0.801 z-score
TTAGGTTTCGACACTAGGTTAGTGCTA	2.46 z-score
TTAGGTTTCCGTTCCGGTTAGTGCTAG	9.09 z-score
GACGGACTGCGTTTCCTGACGTGCTAG	0.305 z-score
TTAGGCCTGGGTTTCGGTTAGTGCTAG	2.7 z-score

For quick reference, copied from above (series 2):
Strand	E-score
CATGGTCA	-0.0112
TTAAAAAA	0.174
AATCAAAC	0.0489
AGGCAACC	0.0583
CATAGACG	-0.109
CGGGTCCC	0.00539
GCGTCAAA	0.102
